Published values from different studies.
Numbered parts are unrelated; each lists some results of a single study.
UniProt Q6P3R8, sequence (whole entry, looked up): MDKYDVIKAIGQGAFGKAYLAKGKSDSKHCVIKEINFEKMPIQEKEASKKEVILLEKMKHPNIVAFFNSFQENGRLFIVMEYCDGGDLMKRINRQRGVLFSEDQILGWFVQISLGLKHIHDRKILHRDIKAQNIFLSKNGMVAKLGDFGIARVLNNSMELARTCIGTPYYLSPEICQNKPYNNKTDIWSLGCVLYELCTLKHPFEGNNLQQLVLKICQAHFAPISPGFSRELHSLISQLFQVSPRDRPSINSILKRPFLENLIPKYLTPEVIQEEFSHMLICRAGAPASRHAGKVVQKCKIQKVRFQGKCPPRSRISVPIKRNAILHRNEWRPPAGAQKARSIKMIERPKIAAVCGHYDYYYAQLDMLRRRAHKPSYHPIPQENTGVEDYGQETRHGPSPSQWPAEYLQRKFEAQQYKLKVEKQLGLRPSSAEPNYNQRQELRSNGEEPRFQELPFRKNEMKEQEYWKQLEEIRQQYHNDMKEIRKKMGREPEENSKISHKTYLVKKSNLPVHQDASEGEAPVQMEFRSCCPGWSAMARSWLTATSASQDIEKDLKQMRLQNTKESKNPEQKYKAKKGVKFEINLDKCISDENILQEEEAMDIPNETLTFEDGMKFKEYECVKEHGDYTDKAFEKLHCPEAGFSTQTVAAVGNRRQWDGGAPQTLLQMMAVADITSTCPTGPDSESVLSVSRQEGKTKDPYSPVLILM
UniProt P54646, sequence (whole entry, looked up): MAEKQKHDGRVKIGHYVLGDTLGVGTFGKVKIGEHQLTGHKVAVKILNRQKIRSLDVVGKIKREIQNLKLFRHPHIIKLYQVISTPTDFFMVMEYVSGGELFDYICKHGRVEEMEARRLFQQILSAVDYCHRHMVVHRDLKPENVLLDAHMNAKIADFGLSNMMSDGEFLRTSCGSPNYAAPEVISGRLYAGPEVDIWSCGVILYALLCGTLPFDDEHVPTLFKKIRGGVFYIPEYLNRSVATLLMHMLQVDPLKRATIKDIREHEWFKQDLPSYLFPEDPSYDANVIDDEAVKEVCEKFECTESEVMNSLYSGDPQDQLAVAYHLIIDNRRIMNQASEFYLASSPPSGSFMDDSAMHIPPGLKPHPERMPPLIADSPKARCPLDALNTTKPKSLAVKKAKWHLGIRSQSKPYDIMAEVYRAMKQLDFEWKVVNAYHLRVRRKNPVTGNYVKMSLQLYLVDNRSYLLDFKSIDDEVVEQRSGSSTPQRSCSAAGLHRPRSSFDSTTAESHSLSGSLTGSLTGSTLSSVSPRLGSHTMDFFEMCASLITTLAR
UniProt P46734, sequence (whole entry, looked up): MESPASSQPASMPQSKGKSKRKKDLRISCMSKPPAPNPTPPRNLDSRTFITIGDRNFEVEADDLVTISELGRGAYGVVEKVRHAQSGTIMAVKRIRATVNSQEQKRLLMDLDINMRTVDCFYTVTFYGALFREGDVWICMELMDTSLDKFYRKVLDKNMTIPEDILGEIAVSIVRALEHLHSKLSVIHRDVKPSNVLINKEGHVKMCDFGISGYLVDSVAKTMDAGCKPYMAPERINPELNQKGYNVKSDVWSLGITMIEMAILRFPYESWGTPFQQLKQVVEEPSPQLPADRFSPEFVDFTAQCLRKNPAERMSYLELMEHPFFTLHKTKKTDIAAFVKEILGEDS
UniProt Q8N4C8, sequence (whole entry, looked up): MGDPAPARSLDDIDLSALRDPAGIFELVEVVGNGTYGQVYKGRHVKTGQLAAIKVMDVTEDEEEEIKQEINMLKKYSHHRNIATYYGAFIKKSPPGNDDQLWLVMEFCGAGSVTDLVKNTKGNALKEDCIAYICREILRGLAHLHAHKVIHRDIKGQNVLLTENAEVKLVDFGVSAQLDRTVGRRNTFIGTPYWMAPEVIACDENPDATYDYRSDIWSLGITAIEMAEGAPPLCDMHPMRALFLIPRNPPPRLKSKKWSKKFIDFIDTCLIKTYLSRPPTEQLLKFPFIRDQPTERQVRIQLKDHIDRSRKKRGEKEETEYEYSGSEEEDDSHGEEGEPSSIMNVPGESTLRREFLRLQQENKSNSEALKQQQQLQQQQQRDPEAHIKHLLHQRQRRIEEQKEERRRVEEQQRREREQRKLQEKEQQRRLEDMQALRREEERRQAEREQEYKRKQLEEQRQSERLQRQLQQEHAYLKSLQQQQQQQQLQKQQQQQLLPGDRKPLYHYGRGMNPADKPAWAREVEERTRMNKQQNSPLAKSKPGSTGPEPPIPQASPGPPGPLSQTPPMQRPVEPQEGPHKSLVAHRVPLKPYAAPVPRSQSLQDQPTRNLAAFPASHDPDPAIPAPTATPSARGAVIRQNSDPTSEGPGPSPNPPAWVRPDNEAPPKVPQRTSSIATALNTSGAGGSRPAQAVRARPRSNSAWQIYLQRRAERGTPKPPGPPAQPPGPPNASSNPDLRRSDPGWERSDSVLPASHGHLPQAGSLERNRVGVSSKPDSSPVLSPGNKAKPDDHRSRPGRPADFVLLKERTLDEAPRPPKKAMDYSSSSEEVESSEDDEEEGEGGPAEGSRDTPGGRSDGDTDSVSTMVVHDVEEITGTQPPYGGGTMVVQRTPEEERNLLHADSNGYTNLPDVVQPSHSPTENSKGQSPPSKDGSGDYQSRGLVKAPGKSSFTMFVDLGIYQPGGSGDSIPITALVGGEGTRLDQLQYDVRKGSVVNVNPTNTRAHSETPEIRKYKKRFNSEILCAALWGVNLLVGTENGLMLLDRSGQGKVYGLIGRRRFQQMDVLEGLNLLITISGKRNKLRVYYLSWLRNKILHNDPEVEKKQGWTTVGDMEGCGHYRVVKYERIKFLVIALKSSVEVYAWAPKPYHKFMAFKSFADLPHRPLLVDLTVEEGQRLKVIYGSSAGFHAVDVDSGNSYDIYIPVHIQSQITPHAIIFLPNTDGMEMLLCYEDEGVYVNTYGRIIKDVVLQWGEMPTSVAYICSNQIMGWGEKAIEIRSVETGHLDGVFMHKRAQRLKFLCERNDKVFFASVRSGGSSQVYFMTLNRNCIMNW
UniProt Q9H093, sequence (whole entry, looked up): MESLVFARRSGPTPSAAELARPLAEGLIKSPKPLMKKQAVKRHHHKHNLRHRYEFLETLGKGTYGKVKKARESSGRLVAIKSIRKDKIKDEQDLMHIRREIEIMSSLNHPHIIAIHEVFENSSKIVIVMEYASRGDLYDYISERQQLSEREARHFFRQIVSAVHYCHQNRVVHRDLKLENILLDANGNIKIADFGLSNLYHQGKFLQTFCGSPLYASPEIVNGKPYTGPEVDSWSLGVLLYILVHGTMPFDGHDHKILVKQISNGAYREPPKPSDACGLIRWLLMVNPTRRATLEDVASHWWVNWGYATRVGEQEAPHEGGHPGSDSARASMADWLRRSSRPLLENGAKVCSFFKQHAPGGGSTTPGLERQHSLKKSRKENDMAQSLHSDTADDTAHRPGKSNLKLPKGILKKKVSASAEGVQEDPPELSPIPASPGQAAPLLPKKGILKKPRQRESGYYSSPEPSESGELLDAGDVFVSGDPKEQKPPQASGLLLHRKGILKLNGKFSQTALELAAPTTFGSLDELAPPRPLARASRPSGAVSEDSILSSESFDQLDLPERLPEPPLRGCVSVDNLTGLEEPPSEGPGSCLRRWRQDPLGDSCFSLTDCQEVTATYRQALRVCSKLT
UniProt P23443, sequence (whole entry, looked up): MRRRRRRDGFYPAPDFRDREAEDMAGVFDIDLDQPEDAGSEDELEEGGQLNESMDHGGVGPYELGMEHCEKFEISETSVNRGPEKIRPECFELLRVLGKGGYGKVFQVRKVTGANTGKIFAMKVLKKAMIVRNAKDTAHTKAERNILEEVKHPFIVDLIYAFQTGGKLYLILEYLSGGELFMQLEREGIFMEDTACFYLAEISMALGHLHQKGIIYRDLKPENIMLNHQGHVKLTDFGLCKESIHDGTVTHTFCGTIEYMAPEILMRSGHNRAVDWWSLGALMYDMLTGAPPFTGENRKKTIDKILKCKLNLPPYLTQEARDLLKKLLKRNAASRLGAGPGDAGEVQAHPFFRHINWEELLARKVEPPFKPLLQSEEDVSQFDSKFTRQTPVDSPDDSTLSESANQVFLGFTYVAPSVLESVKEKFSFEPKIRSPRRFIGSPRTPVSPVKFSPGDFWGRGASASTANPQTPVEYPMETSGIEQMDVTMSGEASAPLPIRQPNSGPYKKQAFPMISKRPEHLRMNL
UniProt Q00536, sequence (whole entry, looked up): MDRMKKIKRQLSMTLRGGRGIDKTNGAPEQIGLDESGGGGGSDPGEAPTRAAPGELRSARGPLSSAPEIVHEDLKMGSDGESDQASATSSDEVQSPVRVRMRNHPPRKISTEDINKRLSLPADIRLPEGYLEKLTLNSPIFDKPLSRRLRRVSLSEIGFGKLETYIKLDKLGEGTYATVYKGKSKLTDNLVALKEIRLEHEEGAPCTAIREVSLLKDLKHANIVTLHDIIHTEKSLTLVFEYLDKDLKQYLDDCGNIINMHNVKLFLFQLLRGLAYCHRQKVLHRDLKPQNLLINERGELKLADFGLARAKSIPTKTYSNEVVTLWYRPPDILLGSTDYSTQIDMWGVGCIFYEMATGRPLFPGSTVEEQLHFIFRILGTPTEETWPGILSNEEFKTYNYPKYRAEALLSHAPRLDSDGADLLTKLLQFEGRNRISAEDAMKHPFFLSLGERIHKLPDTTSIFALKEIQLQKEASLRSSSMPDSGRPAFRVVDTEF
UniProt P49336, sequence (whole entry, looked up): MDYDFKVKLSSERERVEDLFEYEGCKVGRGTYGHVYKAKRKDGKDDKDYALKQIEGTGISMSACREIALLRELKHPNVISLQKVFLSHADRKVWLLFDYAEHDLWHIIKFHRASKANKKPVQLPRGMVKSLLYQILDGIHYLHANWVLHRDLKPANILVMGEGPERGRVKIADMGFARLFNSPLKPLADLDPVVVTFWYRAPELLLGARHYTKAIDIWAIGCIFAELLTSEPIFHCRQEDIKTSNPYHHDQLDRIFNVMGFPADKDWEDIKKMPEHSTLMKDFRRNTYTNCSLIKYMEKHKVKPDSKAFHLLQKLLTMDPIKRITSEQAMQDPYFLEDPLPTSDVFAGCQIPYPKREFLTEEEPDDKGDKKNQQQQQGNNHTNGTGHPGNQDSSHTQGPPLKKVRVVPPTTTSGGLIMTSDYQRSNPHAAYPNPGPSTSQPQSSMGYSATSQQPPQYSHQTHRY

Series 1 — species: human patients; matrix: plasma
Compound: COc1ccc(-c2c(Nc3ccccn3)[nH]c3c(C4=CCCCC4)c(-c4ccccc4)nn3c2=O)cc1
item: methionine; 400 mg once daily, 2 h — median concentration: 79600 ng/mL.
The median concentration was 14.5 ng/mL (item: S-adenosylmethionine; 200 mg once daily, 2 h).
It gave 111000 ng/mL for median concentration (item: methionine; 200 mg once daily, 4 h).
The median concentration was 68700 ng/mL (item: methionine; 100 mg once daily, 0 h).

Series 2 — species: human; matrix: microsomes or S9; concentration: 2 µM; time: 0.5 h
For N#Cc1ccc(OC2CCC(Nc3ncnc(N)c3Cl)CC2)nc1 (stereo not shown), the remaining compound was 91%.
O=C1CC(c2ccsc2)c2ccc3ccccc3c2N1 (stereo not shown) gave a remaining compound of 19.6%.
Cc1cc(C)cc(C(=O)c2c(C(C)C)c(=O)[nH]c(=O)n2Cc2cc(F)nc(F)c2)c1 has a remaining compound of 46.7%.
With COc1cc(=O)n(-c2ccccc2)cc1C(=O)NCC1CCCO1 (stereo not shown) the remaining compound was 87.9%.
With O=C(c1ccc2nncn2c1)N1CC(c2ccccc2)C2(CCC2)C1 (stereo not shown) the remaining compound was 93.2%.
COc1cccc(Nc2nnc(SCC(=O)OC(C)(C)C)s2)c1 gave a remaining compound of 10.2%.

Series 3 — cell line: HaCaT; concentration: 100 µM; time: 36 h
CN(Cc1ccc(C(C)(C)C)cc1)Cc1cccc2ccccc12 has a viability of 30.4%.
CCN(CC)CCNC(=O)c1cc(Cl)c(N)cc1OC gave a viability of 84.7%.
COc1cnc(NS(=O)(=O)c2ccc(N)cc2)nc1 has a viability of 77.5%.
Nc1ccc(S(=O)(=O)Nc2ccc(Cl)nn2)cc1 has a viability of 49.5%.
CC(=O)NCCCS(=O)(=O)O gave a viability of 82.2%.
CC(C)(Oc1ccc(C(=O)c2ccc(Cl)cc2)cc1)C(=O)O gave a viability of 90%.
With O=c1ccc2ccc(O)c(O)c2o1 the viability was 108%.

Series 4 — technique: competition with immobilised ligand; concentration: 1 µM
SMILES: Cc1nc(Cc2cccc(C(F)(F)F)c2)sc1-c1ccc(C(N)=O)nc1
For CDK16 (Homo sapiens, UniProt Q00536); cell-free assay: remaining binding read 100%.
The remaining binding was 100% (TSSK3 (Homo sapiens, UniProt Q96PN8); cell-free assay).
For RPS6KB1 (Homo sapiens, UniProt P23443); cell-free assay: remaining binding read 83%.
PRKAA2 (Homo sapiens, UniProt P54646); cell-free assay — remaining binding: 96%.
For LCK (Homo sapiens, UniProt P06239); cell-free assay: remaining binding read 100%.
The remaining binding was 100% (CDK8 (Homo sapiens, UniProt P49336); cell-free assay).
For TBK1 (Homo sapiens, UniProt Q9UHD2); cell-free assay: remaining binding read 91%.
MAP2K3 (Homo sapiens, UniProt P46734); cell-free assay — remaining binding: 93%.
For PHKG2 (Homo sapiens, UniProt P15735); cell-free assay: remaining binding read 100%.
MINK1 (Homo sapiens, UniProt Q8N4C8); cell-free assay — remaining binding: 92%.
The remaining binding was 100% (NUAK2 (Homo sapiens, UniProt Q9H093); cell-free assay).
PRKD2 (Homo sapiens, UniProt Q9BZL6); cell-free assay — remaining binding: 76%.
It gave 35% for remaining binding (NEK5 (Homo sapiens, UniProt Q6P3R8); binding).
For Tyrosine-protein kinase ABL1, phosphorylated (ABL1, Homo sapiens, UniProt P00519, F317L); cell-free assay: remaining binding read 89%.

A few entries again (series 3):
CC(=O)NCCCS(=O)(=O)O gave a viability of 82.2%.
CC(C)(Oc1ccc(C(=O)c2ccc(Cl)cc2)cc1)C(=O)O gave a viability of 90%.
